Measured values of several laboratories.
Lines come from different studies, so protocols differ. Values joined by “and” are separate records of one study, mostly repeats; a detail may differ. ± gives the spread as reported.

SMILES	tested on	test	system	setting	endpoint	result
CC[C@H](C)[C@H](NC(=O)[C@H](CCCCN)NC(=O)CNC(=O)[C@H](CC(C)C)NC(=O)[C@H](Cc1ccccc1)NC(=O)[C@H](CCCCN)NC(=O)[C@H](CO)NC(=O)[C@H](Cc1ccccc1)NC(=O)[C@H](Cc1c[nH]c2ccccc12)NC(=O)[C@H](CCC(N)=O)NC(=O)[C@@H](NC(=O)[C@H](Cc1ccccc1)NC(=O)CCCCCNC(=O)CN1CCN(CC(=O)O)CCN(CC(=O)O)CCN(CC(=O)O)CC1)C(C)C)C(=O)N[C@@H](CCC(=O)O)C(=O)N1CCC[C@H]1C(=O)N[C@@H](CC(=O)O)C(=O)N[C@H](C(=O)N[C@@H](CO)C(=O)N[C@@H](CCC(N)=O)C(=O)N[C@H](C(=O)N[C@@H](CCC(N)=O)C(=O)N[C@@H](CC(=O)O)C(=O)N1CCC[C@H]1C(=O)N[C@@H](CC(N)=O)C(=O)N[C@@H](CC(=O)O)C(=O)N[C@@H](CCC(N)=O)C(=O)N[C@@H](Cc1ccc(O)cc1)C(=O)N[C@@H](CCC(=O)O)C(=O)N1CCC[C@H]1C(=O)N[C@@H](Cc1ccccc1)C(=O)O)C(C)C)C(C)C [copper-64 labelled]	–	–	GZMB-/- mice, CT26 tumour-bearing, heart	2 h, checkpoint inhibitor-treated	tissue uptake	0.81 ± 0.4 %ID/g
CCCC[C@H]1C(=O)N(C)[C@@H](CCCC)C(=O)N[C@@H](CCCNC(=O)CN2CCN(CC(=O)O)CCN(CC(=O)O)CCN(CC(=O)O)CC2)C(=O)N[C@H](C(=O)NCC(N)=O)CSCC(=O)N[C@@H](Cc2ccc(O)cc2)C(=O)N(C)[C@@H](C)C(=O)N[C@@H](CC(N)=O)C(=O)N2CCC[C@H]2C(=O)N[C@@H](Cc2c[nH]cn2)C(=O)N[C@@H](CC(C)C)C(=O)N(C)CC(=O)N[C@@H](Cc2c[nH]c3ccccc23)C(=O)N[C@@H](CO)C(=O)N[C@@H](Cc2c[nH]c3ccccc23)C(=O)N1C [gallium-68 labelled]	–	–	NOD/SCID mice with CHO-hPD-L1 xenograft, bone	10 min post injection	tissue uptake	2.06 ± 0.28 %ID/g
CSCC[C@H](NC(=O)CNC(=O)[C@H](CCCCN)NC(=O)[C@H](CC(C)C)NC(=O)[C@@H]1CCCN1C(=O)[C@H](CO)NC(=O)[C@H](Cc1c[nH]cn1)NC(=O)[C@H](Cc1c[nH]c2ccccc12)NC(=O)[C@H](CCCNC(=N)N)NC(=O)[C@H](CC(C)C)NC(=O)[C@H](CCCNC(=N)N)NC(=O)[C@H](Cc1c[nH]c2ccccc12)NC(=O)[C@H](CS)NC(=O)CCCCCNC(=O)CN1CCN(CC(=O)O)CCN(CC(=O)O)CCN(CC(=O)O)CC1)C(=O)O [copper-64 labelled]	–	ex vivo biodistribution	C57BL/6J mice bearing B16-F10 tumours, tumour	intravenous, 1.85 MBq, 30 h	tissue uptake	2.98 %ID/g
O=C1NC2(CC2)COc2ncc(F)cc2[C@H]2COCCN2c2ccn3ncc1c3n2	–	–	Sprague-Dawley rat, male, testes	oral, 2.5 mg/kg/day, 4 weeks dosing, end of recovery	organ-to-brain weight ratio	153 ± 14.6%
CC(C)C[C@@H](NC(=O)[C@@H](CCCNC(=N)N)NC(=O)[C@@H](Cc1c[nH]cn1)NC(=O)[C@@H](Cc1c[nH]c2ccccc12)NC(=O)[C@@H](Cc1c[nH]cn1)NC(=O)[C@@H](Cc1ccccc1)NC(=O)[C@H](NC(=O)[C@@H](Cc1ccc(O)cc1)NC(=O)CNC(=O)CNC(=O)CCOCCOCCOCCNC(=O)CN1CCN(CC(=O)O)CCN(CC(=O)O)CC1)[C@H](C)O)C(=O)N[C@H](CC(N)=O)C(=O)N1CCC[C@@H]1C(=O)O [gallium-68 labelled]	–	gamma counting	C57BL/6 mice, male, tumor	intravenous, 1.85 MBq, 120 min	tissue uptake	3.73 ± 0.36 %ID/g
C[C@H](O)[C@@H](NC(=O)[C@H]1CCCN1C(=O)[C@@H](CCCCN)NC(=O)[C@@H](CO)NC(=O)[C@@H](Cc1ccc(O)cc1)NC(=O)[C@@H](CC(N)=O)NC(=O)CCOCCOCCOCCNC(=O)CN1CCN(CC(=O)O)CCN(CC(=O)O)CCN(CC(=O)O)CC1)C(=O)N[C@H](CC(=O)O)C(=O)N[C@H](CCCNC(=N)N)C(=O)N[C@H](CCC(N)=O)C(=O)N[C@H](Cc1ccc(O)cc1)C(=O)N[C@H](Cc1c[nH]cn1)C(=O)N[C@H](Cc1ccccc1)C(N)=O [gallium-68 labelled]	–	–	BALB/c nude mice U-87 MG tumour, brain	intravenous, 1.85 MBq, 0.5 h, radiolabelled	tissue uptake	0.11 ± 0.08 %ID/g
CC[C@H](C)[C@H](NC(=O)[C@H](CCCNC(=N)N)NC(=O)[C@H](CCCCN)NC(=O)[C@H](Cc1ccc(O)cc1)NC(=O)[C@H](CC(=O)O)NC(=O)[C@H](C)NC(=O)CNC(=O)CCOCCOCCOCCNC(=O)CN1CCN(CC(=O)O)CCN(CC(=O)O)CCN(CC(=O)O)CC1)C(=O)N[C@H](C(=O)N[C@H](C(=O)N[C@@H](CCCCN)C(=O)N[C@H](C(=O)N[C@@H](CC(N)=O)C(N)=O)C(C)C)C(C)C)[C@@H](C)O [copper-64 labelled]	–	ex vivo gamma counting	C57BL/6J male mice, B16-F10 tumour, thymus	intravenous, 1.85 MBq, 20 min	tissue uptake	1.16 ± 0.226 %ID/g
Cc1ccc(OCCN(C)C)cc1C(=O)N[C@H](C)c1cc(-c2ccco2)nc2ccccc12	Vero E6	–	–	15.62 µM	viability	69.6% and 83.1%
CC[C@H](C)[C@H](NC(=O)[C@H](CCCNC(=N)N)NC(=O)[C@H](CCCCN)NC(=O)[C@H](Cc1ccc(O)cc1)NC(=O)[C@H](CC(=O)O)NC(=O)[C@H](C)NC(=O)CNC(=O)CCOCCOCCOCCNC(=O)CN1CCN(CC(=O)O)CCN(CC(=O)O)CCN(CC(=O)O)CC1)C(=O)N[C@H](C(=O)N[C@@H](CC(C)C)C(=O)N[C@@H](CCCCN)C(=O)N[C@H](C(=O)N[C@@H](CC(N)=O)C(N)=O)C(C)C)[C@@H](C)O [copper-64 labelled]	–	ex vivo gamma counting	C57BL/6J male mice, B16-F10 tumour, kidney	intravenous, 1.85 MBq, 40 min	tissue uptake	11.3 ± 1.95 %ID/g
CN1Cc2cc(Cl)ccc2-n2c(nnc2C2CCN(c3cccc([18F])n3)CC2)C1	–	–	C57BL/6 mouse male, lung	intravenous, dose not given, 30 min, with: blocking agent 10 mg/kg	tissue uptake	5.82 ± 1.35 %ID/g
Cc1ccc(OCCN(C)C)cc1C(=O)N[C@H](C)c1cc(-c2cnn(CC(=O)N(C)C)c2)nc2ccccc12	African green monkey cells	–	–	15.62 µM	viability	92.8%

Repeated from above:
SMILES	tested on	test	system	setting	endpoint	result
C[C@H](O)[C@@H](NC(=O)[C@H]1CCCN1C(=O)[C@@H](CCCCN)NC(=O)[C@@H](CO)NC(=O)[C@@H](Cc1ccc(O)cc1)NC(=O)[C@@H](CC(N)=O)NC(=O)CCOCCOCCOCCNC(=O)CN1CCN(CC(=O)O)CCN(CC(=O)O)CCN(CC(=O)O)CC1)C(=O)N[C@H](CC(=O)O)C(=O)N[C@H](CCCNC(=N)N)C(=O)N[C@H](CCC(N)=O)C(=O)N[C@H](Cc1ccc(O)cc1)C(=O)N[C@H](Cc1c[nH]cn1)C(=O)N[C@H](Cc1ccccc1)C(N)=O [gallium-68 labelled]	–	–	BALB/c nude mice U-87 MG tumour, brain	intravenous, 1.85 MBq, 0.5 h, radiolabelled	tissue uptake	0.11 ± 0.08 %ID/g
